Assay results pooled from the literature.
Compare with care: the assays were run in different laboratories. Numbers after ± are the reported error.

`O=c1[nH]nc(O)c2c(-c3ccccc3)c3n(c12)CCn1cccc1-3` has an IC50 of 92.5 µM (PANC-1; cell growth or viability, MTT; 48 h).
With `COc1cc(/C=C/C(=O)CC(=O)/C=C/c2ccc(O)c(OC)c2)ccc1O` the IC50 was over 50 µg/mL (Hs68; cell growth or viability, MTT; 48 h).
The IC50 of `O=C(Nc1ccc(Cl)c([N+](=O)[O-])c1)Nc1nc2ccccc2s1` is reported as 2.3 µM (LN-229; cell growth or viability; 5 days).
The IC50 of `C[C@H](Nc1ccc2c(c1)OCCn1cc(N3C(=O)OC[C@H]3C(F)F)nc1-2)C(N)=O` is reported as 0.01 µM (SK-OV-3; Akt phosphorylation, inhibitor, in-cell western, item: Akt pSer473; 1 h).
`COc1ccccc1C[C@@H](Oc1cccc2oc(-c3ccc(F)cc3)c(-c3ccc(OCCN4CCN(C)CC4)c(Cl)c3C)c12)C(=O)O` has an IC50 of over 1.88 µM (NCI-H929; cell viability, MTT; 48 h, 10% CFS).
The IC50 of `COc1ccc2oc(C(=O)c3cc(OC)c(OC)c(OC)c3)c(NC(C)=O)c2c1` is reported as 64.7 µM (L1210; cell growth or viability; 24 h).
For `O=C(/C=C/c1cccc(O)c1)c1ccc(Cl)cc1`, the IC50 was 11.4 µM (WRL68; cell growth or viability, MTT; 72 h).
With `Cc1cc(=O)oc2c(C)c3c(cc12)C(=O)CC1(CCCCC1)O3` the IC50 was 362 ± 155 µM (NIH3T3; hyaluronan secretion; 72 h).
`COc1cc(C(=O)c2sc3c(C)cccc3c2NC(=O)CI)cc(OC)c1OC` has an IC50 of 0.28 µM (L1210; cell growth or viability; 24 h).
With `COc1ccc(C[C@H](N)C(=O)N[C@H]2[C@@H](O)[C@H](n3cnc4c(N(C)C)ncnc43)O[C@@H]2CO)cc1` the IC50 was 3.49 ± 0.64 µM (NIH3T3; resazurin; 125 cells per well).
The IC50 of `Cc1cc(C(=O)/C(=C\c2cccc(F)c2)c2cccc(F)c2)c(C(=O)N2CCCCC2)c(=O)[nH]1` is reported as over 10 µM (human Fibroblast; cell growth or viability, MTT; 72 h).
With `O=C(N/N=C/c1cccnc1)c1c(O)ccc2ccccc12` the IC50 was over 10 µM (PANC-1; cell growth or viability; 72 h).
The IC50 of `COc1ccc2cc3[n+](cc2c1OCCc1cn(Cc2ccc(F)c(F)c2)nn1)CCc1cc2c(cc1-3)OCO2` is reported as 50.7 µM (HUVEC; cell growth or viability, MTT).
With `COc1cc([C@@H]2c3cc4c(cc3[C@@H](O[C@@H]3O[C@@H]5CO[C@@H](C)O[C@H]5[C@H](O)[C@H]3O)[C@H]3COC(=O)[C@H]23)OCO4)cc(OC)c1O` the IC50 was 24.3 µM (PANC-1; cell growth or viability, MTT; 48 h).
The IC50 of `CC1=CC(=O)C(C(C)C)=CC1=O` is reported as 10.5 µg/mL (WRL68; cell growth or viability, MTT; 24 h).
With `C[C@H]1[C@H](C)CC[C@]2(C(=O)O)CC[C@]3(C)C(=CC[C@@H]4[C@@]5(C)C[C@@H](O)[C@H](O)[C@@](C)(CO)[C@@H]5[C@H](O)C[C@]43C)[C@H]12` the IC50 was 1.99 µM (LAPC4; AR transcriptional activity, antagonist, PSA promoter luciferase; 24 h).
`Cc1c(OCC(F)(F)F)ccnc1C[S@@+]([O-])c1nc2ccccc2[nH]1` has an IC50 of about 50 µM (NICD-transfected HEK-293T; Notch-dependent transcription, inhibitor, luciferase reporter; 24 h).
For `CC(=O)OC[C@H]1O[C@@H]([S-])[C@H](OC(C)=O)[C@@H](OC(C)=O)[C@@H]1OC(C)=O.CCP(CC)CC.[Au+]`, the IC50 was 3.08 ± 0.13 µM (CAKI-1; cytotoxicity, XTT).
`Nc1ccc(/C=C/C(=O)NCc2cc3cc(-c4ccc(C(=O)N5CCC(F)(F)CC5)cc4)cc(-c4ccc(F)cc4)c3o2)cn1` has an IC50 of 0.8 µM (U2OS; cell growth or viability, CCK-8; 72 h).
For `C=CCc1ccc(O)c(-c2ccc(O)c(CC=C)c2)c1`, the IC50 was 3.16 µM (PANC-1; cell proliferation, MTS; 24 h, added: 10 µM BLM).
`FC(F)(F)Oc1ccc(-c2cc3ccccc3[nH]2)cc1` gave an IC50 of 6.5 ± 0.1 µM (HEK293 NF-κB luciferase reporter; reporter gene, item: NF-κB; 6 h, added: TNFα).
`COC(=O)c1c(-c2cccc(C)c2)c2n(c1C(=O)OC)CCn1cccc1-2` has an IC50 of 74.2 µM (PANC-1; cell growth or viability, MTT; 48 h).
`CC/C(=C(\c1ccc(O)cc1)c1ccc(OCCN(C)C)cc1)c1ccccc1` gave an IC50 of 3.3 µM (cultured mouse DRG neurons; sodium current, whole-cell voltage clamp; 5 min, -10 mV trains at 0.2 Hz).

Excerpt of the above:
`CC/C(=C(\c1ccc(O)cc1)c1ccc(OCCN(C)C)cc1)c1ccccc1` gave an IC50 of 3.3 µM (cultured mouse DRG neurons; sodium current, whole-cell voltage clamp; 5 min, -10 mV trains at 0.2 Hz).
For `CC(=O)OC[C@H]1O[C@@H]([S-])[C@H](OC(C)=O)[C@@H](OC(C)=O)[C@@H]1OC(C)=O.CCP(CC)CC.[Au+]`, the IC50 was 3.08 ± 0.13 µM (CAKI-1; cytotoxicity, XTT).
